# Results pooled from the literature.
# Each numbered part is a random draw from the data of one study; scales do not carry over between parts.

# Study 1 — method: RNA Bind-n-Seq; form: RNA; matrix: in vitro; tested at: 365 nM; reference: no-protein control; reading: higher = stronger binding
# Target: RNA binding protein fox-1 homolog 2, RRM domain, GST-SBP tag (RBFOX2, Homo sapiens, UniProt O43251-10, residues 100-194)
# Setting: natural RNA segment, single round, ends assumed
# Construct (chain): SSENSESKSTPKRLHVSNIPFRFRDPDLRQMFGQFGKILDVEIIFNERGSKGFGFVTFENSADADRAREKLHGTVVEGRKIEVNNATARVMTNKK
Sequence,RBNS enrichment (R)
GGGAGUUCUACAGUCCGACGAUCUACAAAUCCUGCUCUGGUCUCUGGCCCCACAGAGGUGUAAGAUCAUUAAGAAGUAGAAGGCACUAGCUUCAAAGAGUGAGACAUUCAGGGCCUUUUCAGCAUUGGCCCACUGGAAUUCUCGGGUGCCAA,0.322
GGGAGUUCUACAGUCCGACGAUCUGAACUCAAAUGAGGUUUCCUGGGUAAUGUGACACCUGCAGAAACUAUAGAGCGUCAUUUAUACGUAGUUUGGCAGAAACCACUUACGGCUGAUGAUGCGCAACCCUGCUUGGAAUUCUCGGGUGCCAA,0.447
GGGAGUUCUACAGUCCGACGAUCGAGUCUUUGAGCCUACGAGUCAUGCCACCAGCCAUAAGUUGACCUAUCACUUGAGAACCUCCUCAGCAAAGAUGCCAGAAAACAUUCAAUCAAGUUGGCAAAUGACACAGUGGAAUUCUCGGGUGCCAA,0.331
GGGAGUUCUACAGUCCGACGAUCAUUUGAAUUGUACCAGCAAUGGACUUUUAAAAAAUUGGAUGUAAAACCAUUCAGGGUGAUUUUUCUUGUCAGUGGACAGUGACGAACAGAGAUUUGAAAUCCCUUACCUCUGGAAUUCUCGGGUGCCAA,0.739
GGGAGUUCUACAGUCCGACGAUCCUUGGCACAUGAAUGACAUUACACACUGAUGCCUGCCAACACACGCAUGGGGUAAGGGCUUUCAUCUCAGUAAUUCUCUUGUUCUAAGGAGAUCAGCUCCAACUAUGGUGUGGAAUUCUCGGGUGCCAA,5.01
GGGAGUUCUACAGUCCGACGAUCUCUCCCUGUGUCAGAUGAUAUGUCCUUGAAGCUGGCAGGGGAUUCCCAGUCCAGGGAAUAUCCCUACAUGAUUUUUGUCAUUCAUGGGUCCUCCCUGGGCCUGACAACGGUGGAAUUCUCGGGUGCCAA,1.79
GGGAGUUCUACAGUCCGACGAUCCUCCACUCACCAGCUGUUGAGUCUGUGCGGAAGACAGGAUCUUAUUACUUCAAUGGCAGCAGCGAUCAAGAAAGUUCUCCAACCUUGAACAGCCAAAUGGAUUGACUACAUGGAAUUCUCGGGUGCCAA,0.379
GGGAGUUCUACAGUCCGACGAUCUGUAGAUUUUCUACUUGAAUAUUUUUAUGUUGUAGGAACCUCAGGAGGUCAGUGUUUACUGUUUUAUAUAUGCCUUCUUUUUCCUGUUUGAGCUUCUCUCUUUGAAGGAUUGGAAUUCUCGGGUGCCAA,0.474
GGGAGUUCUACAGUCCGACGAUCCUACCUGAGGUACACUUUUAAACCUCAUCUUCUAUUUCUUCCCUCUCUUCUGCAAAUGAACAAAACAAAACAUAAAGGUGGUUGUUGUAAGCUAAGUAUAUUUGUGGAGGUGGAAUUCUCGGGUGCCAA,0.507
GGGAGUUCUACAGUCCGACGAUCAGUUUUAAACCUGUUAAAUUAAUUUUGACAAAUAAGUUACCCUCAACUCAGAUCAAAAAUGGGCAGCCAAGUCUUCGGUAGGAAUUGGAGCCGGUGUAAUUCCUCCCUAAUGGAAUUCUCGGGUGCCAA,0.407
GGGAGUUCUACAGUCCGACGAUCAAACUAUACACACUGCCCCCGACUCCAUGCAGUCUUGAGUGCCCUAAGUUGUCAGCCCAACAGAGUUUGGUAGACCUUGGGGGUCCCUGGCUUAUCUCUCCACCCCAAACUGGAAUUCUCGGGUGCCAA,0.637
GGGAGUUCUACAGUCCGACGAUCAUAAGAAUUUGAGCAAGGCCAGUGACCACAGUGAAGUCUGAGACCCAUGUGUUGAAGUGCACGCCUCAUCUUUAGCAGCUGCCCCAAAGAGGCCAGAUCCUGGCAUUUUGUGGAAUUCUCGGGUGCCAA,0.957

# Study 2 — method: RNAcompete; form: RNA; matrix: in vitro; tested at: 20 nM; setting: 7-mer, probes averaged, single round; reference: mean of 7-mers; reading: higher = stronger binding
# Target: PABPC1L2, full length, GST fusion (mouse, UniProt A0ABA7IW68)
# Target sequence (chain): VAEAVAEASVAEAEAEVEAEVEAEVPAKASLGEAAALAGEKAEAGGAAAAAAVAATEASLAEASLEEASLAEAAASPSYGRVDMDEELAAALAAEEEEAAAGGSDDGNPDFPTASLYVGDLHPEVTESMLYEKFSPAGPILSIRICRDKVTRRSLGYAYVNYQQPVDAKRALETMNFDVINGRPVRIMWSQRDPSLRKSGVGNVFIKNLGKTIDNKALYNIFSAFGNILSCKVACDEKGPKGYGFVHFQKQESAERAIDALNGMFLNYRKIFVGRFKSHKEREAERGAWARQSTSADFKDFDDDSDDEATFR
Sequence,7-mer Z-score
CAUCAUA,-0.0609
UGUGGGU,-0.0482
GCUUUUU,0.133
GGCUACA,0.0605
GUCCUCA,-0.184
UUUAUCA,-0.106
AAAAGCA,4.58
AAUUAGA,0.383
CUAGCAG,-0.275
AGAGGGG,0.247
ACGCACC,-0.0264
GUGUCCU,-0.186
AACUUUC,-0.106
CUGAUAC,-0.264
UUCAGGA,-0.0627
UUAAGGU,-0.155
CAUCCCC,-0.44
UUUGGCU,-0.262
GAGUGAA,0.0315
GAGUGGU,-0.215
CCAUAGU,-0.382
ACGUGAG,-0.228
ACUGUUG,-0.199
GGGCCUC,-0.159
CUAGGCC,-0.22

# Study 3 — method: universal PBM; form: double-stranded DNA, one strand shown; matrix: in vitro; tested at: 600 nM; reading: higher = stronger binding
# Target: Sal-like protein 4, full length isoform A (SALL4, Homo sapiens, UniProt Q9UJQ4, residues 1-1053)
# Sequence of UniProt Q9UJQ4 (whole entry, looked up): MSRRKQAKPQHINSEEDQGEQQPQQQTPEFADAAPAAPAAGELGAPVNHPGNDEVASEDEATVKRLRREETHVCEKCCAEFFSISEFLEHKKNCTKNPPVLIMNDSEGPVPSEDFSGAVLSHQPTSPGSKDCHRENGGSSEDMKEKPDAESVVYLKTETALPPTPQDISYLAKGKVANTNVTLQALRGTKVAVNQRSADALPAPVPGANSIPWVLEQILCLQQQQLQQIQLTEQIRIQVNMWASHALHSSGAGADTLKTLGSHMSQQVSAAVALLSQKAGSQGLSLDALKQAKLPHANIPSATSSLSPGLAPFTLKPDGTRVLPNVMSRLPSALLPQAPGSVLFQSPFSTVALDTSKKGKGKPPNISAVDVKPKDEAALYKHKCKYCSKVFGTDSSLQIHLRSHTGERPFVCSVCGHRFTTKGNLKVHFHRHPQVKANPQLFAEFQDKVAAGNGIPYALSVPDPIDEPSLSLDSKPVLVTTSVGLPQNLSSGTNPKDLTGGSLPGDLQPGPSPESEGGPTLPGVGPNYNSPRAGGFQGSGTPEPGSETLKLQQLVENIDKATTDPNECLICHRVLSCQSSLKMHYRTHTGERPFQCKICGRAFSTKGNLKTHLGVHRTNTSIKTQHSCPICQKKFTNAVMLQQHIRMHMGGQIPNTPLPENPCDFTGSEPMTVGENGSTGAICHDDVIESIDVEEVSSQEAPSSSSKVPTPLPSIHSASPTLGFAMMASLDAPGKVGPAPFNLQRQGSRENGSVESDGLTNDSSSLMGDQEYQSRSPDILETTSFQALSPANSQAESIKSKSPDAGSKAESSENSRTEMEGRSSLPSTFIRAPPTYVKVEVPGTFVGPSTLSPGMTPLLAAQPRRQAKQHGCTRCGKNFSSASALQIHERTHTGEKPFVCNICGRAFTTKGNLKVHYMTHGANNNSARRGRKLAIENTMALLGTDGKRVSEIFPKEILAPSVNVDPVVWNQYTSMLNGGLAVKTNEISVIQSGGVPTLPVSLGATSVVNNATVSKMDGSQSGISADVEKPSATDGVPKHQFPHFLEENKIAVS
# Setting: 8-mer, flanks averaged, mean of replicates
Sequence,E-score
GGCCATTA,-0.0312
CGGCCAGC,-0.277
ATTGTTTG,0.187
ACATTCAA,0.11
ACTTACCT,0.0519
AGCGTGAC,-0.126
CATTGGAG,-0.0235
GAATAAAC,0.33
GATCTGAA,-0.0671
CCCCCTGA,-0.372
AAATCCTC,-0.193
AGATGGCC,-0.213
GATAGCCA,-0.112
AGTTGTGG,0.135
CATGCGCG,-0.304
TATAAAGA,0.273
CCGCGGAA,-0.258
CACCACCG,-0.391
CGCCCGAG,-0.325
GCCACTCA,-0.148
GCCACGGC,-0.32
AGCACTAT,0.1
ACCGAGCC,-0.227
AGATGCCC,-0.215
CCGCGGCA,-0.211

# Study 4 — method: RNA Bind-n-Seq; form: RNA; matrix: in vitro; tested at: not given; reference: input RNA pool; reading: higher = stronger binding
# Target: RING finger protein unkempt homolog, zinc fingers 1-6, GST-SBP tag (UNK, Homo sapiens, UniProt Q9C0B0, residues 30-357)
# Sequence of UniProt Q9C0B0 (30-357, looked up): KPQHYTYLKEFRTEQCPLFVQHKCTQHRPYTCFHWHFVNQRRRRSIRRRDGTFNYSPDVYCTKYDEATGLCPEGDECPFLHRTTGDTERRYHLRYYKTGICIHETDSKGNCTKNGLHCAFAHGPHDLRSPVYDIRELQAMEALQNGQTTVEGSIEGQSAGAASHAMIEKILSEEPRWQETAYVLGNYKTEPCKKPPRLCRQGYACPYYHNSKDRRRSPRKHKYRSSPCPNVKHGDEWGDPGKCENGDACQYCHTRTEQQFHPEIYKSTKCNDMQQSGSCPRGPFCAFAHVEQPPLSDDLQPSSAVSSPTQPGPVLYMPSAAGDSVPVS
# Setting: RNA with constant flanks, human and mouse sites, ends assumed
Sequence,bound/input enrichment [ratio]
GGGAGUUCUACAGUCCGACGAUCGCCGGCAUAGAUGGGGUGGUUAGUAUGAGGUUCAAGGUGAAAAGAUCAGAAUACUGAGAGUAGAGUGCCAAAGGGGAAGGGAGACAGAAGCAAGGGAAAUAAAUGACACUAAUAAUGAAACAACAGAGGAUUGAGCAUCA,1.12
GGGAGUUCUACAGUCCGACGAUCAAGAAAAUGCAUAUACAAAGUGCUGUGUCCAAAAUGAACCCUGGGGAGAAAGAACCCAUUCAUAGAGGAACUACUGAAGUGAAUAUAGAUUCUGAAACUGUUCAUAGAAUGUUACUGAGUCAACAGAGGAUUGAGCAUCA,0.246
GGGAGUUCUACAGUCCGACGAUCACCUGGGGCAUUCAGCCGGCGCCCAUGCCUGUGCCUGUGUGGGUGAUCAUCUUGGCAGUUCUCGCAGGGCUGCUGCUACUGGCUGUGUUGGUAUUUGUAAUGUACAGGAUGGGCUUUUUCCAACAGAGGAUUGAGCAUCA,0.382
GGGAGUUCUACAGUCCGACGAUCUUCUCCUCAUUAUUUAAAAAUGCUAAACCUUGUAUCUCACUUUUUCUCUAACACUGAUUUAAUAGCUAACGAGGUAGAAGCAACAUUCAUUCUCCUGGUCUUACAUAUGAAUUUAAGUAUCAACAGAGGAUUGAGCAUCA,0.485
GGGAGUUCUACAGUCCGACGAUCACAUUUCAGGUUUUUCAAGAAGAAUUUGGAGUAAUUAAAUCCUAUAACUUAAAACCAGGGGGUGAUAAGAUUCCAGUUACCAAUCAGAAUAGAAGAGAGUAUGUACAGCUUUAUACUGACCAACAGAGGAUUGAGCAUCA,0.344
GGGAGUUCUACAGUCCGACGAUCGACCUAGCAAAUAAAAGAGCAGUAGAUUUCCAGGAAGCACAGUCCUAUGCAGAUGACAAUAGUUUAUUAUUCAUGGAGACAUCCGCUAAAACAUCAAUGAAUGUAAAUGAAAUAUUCAUGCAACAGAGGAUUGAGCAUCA,1.42
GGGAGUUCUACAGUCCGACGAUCGCUGCCUCUGCCAGUGCUGAAUUCUUUGCUGACAUUGCCCUGGCUCCUAUGGAAGCUGCUAAGGUUCGAAUUCAAACCCAGCCAGGUUAUGCCAACACUUUGAGGGAUGCAGCUCCCAAACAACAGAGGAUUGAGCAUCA,0.122
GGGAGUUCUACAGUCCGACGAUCGUGGCUGACAUCUCUGUUGCUAAAAUCGAUCCUUCGGCCCCUUUGGAUAAAGUCUGCCUUCUCGGCUGUGGUAUUUCAACUGGCUACGGGGCUGCUGUGAACACUGCCAAGGUGGAGCCUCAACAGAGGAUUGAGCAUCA,0.158
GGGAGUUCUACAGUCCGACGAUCGGAAAUCUACAAAGGACAUCCAGCCAGCGAAGCACCCUUACAUACCAAAGAAAUAACUAUGCCCUGAACACAGCAGCUACCUAUGCGGAGCCCUACAGGCCAGUUCAGUACCGAGUCCAACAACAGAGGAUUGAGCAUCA,0.281
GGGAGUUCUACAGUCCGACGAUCAGAGACAUGCUUCGACGAAUUAAGGAAGAUGAAGAUGAUAAAACAGUUUUGGAUCUUGCUGUGGUUUUGUUUGAAACAGCAACGCUUCGGUCAGGGUAUCUUUUACCAGACACUAAAGCACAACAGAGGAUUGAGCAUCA,0.223
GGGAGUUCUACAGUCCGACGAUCAAACUGUUCUACAGUGCAAAGAACACCAGCGAGCUCCUGUUUAAGAAAGAUAUCCUCGACUUAGUACAUGAAUUCCCUGAGAAGAUUUCUUGCAGUUUUCAUGUUACAAAACAGACAGCACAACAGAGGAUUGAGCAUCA,0.13

# Study 5 — method: protein-binding microarray; form: double-stranded DNA, one strand shown; matrix: in vitro; tested at: not given; reading: higher = stronger binding
# Target: Protein C-ets-1 (ETS1, Homo sapiens, UniProt P14921, residues 1-441, Y397A, full length assumed)
# Sequence of UniProt P14921 (whole entry, unmodified, looked up): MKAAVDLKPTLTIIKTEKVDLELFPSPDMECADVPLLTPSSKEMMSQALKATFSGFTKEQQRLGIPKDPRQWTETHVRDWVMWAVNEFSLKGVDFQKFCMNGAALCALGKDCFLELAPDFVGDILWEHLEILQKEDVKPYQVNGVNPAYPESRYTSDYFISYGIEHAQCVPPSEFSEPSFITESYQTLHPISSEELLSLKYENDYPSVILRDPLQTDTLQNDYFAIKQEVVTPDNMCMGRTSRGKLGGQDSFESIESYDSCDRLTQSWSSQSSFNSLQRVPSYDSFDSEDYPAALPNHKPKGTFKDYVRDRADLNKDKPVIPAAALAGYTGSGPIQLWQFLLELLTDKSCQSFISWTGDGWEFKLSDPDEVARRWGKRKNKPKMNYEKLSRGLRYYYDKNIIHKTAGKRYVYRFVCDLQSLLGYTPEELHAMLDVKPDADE
# Setting: k-mer, scored over probes, only values ≥0.25
Sequence,E-score
AGTTTCCG,0.294
CAACATAA,0.28
TGTCGACA,0.295
ACAACTTC,0.259
AAATTGCT,0.25
ACAAACAC,0.346
CAACGTTA,0.27
TCGTCAAA,0.34
ACATCCGC,0.42
GTACGACA,0.287
ACCCACCC,0.318
GTTGCGTA,0.265
ATTGTCTA,0.263
TCGCCAAA,0.334
ATGTTACA,0.255
CAAACAAC,0.255
CGACAATC,0.366
AACACATT,0.256
CGCAAACC,0.291
AAGTAACA,0.261
GCGTCGGA,0.303
ATCTGTCA,0.282
TATCAACA,0.26
AACGCAAC,0.349
ACGCACGC,0.316
